Measurements pooled from the literature.
Each numbered part is a random draw from the data of one study; scales do not carry over between parts.

Set 1
Target: Sal-like protein 4, full length isoform A (SALL4, Homo sapiens, UniProt Q9UJQ4, residues 1-1053)
Sequence of UniProt Q9UJQ4 (whole entry, looked up): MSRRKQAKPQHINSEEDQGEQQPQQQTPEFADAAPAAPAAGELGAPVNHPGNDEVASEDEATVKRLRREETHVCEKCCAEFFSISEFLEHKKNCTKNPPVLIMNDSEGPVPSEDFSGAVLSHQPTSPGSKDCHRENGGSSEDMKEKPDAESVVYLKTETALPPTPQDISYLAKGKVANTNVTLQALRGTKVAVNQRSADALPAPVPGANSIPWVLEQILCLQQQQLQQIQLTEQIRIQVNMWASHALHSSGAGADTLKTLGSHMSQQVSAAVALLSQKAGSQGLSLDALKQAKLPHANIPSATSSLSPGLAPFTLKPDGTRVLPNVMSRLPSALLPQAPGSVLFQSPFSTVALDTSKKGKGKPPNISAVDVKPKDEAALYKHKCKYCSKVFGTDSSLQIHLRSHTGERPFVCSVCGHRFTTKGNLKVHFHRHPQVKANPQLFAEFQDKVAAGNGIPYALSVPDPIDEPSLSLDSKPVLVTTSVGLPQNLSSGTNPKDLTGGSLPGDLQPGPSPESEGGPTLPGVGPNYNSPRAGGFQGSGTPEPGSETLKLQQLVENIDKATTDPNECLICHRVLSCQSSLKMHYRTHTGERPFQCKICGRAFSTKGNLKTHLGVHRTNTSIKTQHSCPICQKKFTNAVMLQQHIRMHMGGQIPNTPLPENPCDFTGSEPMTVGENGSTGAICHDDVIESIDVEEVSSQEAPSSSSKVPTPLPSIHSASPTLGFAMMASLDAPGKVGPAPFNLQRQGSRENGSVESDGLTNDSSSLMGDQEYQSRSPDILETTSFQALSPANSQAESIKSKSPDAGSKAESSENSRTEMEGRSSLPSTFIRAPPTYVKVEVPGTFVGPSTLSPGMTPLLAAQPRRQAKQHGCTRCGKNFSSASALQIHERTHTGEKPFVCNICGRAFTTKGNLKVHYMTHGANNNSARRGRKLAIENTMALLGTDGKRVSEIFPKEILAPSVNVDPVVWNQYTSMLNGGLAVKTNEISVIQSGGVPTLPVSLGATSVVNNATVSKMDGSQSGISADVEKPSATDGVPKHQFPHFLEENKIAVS
Technique: universal PBM
Molecule type: double-stranded DNA, one strand shown
Matrix: in vitro
Concentration: 600 nM
Setting: 8-mer, flanks averaged, mean of replicates
Direction: higher = stronger binding
Measurement: E-score
AAGATTTA: 0.235
CCGCGGCG: -0.256
CGCTATCC: -0.106
CGTCTACA: -0.119
CTTCGAGA: -0.0863
CCAGGTTA: -0.0593
TGCATAAA: 0.33
ATGACAAC: 0.135
TTCGTAAA: 0.282
AGATCAAG: 0.0471
AACTAAAA: 0.226
AAGAAAGA: 0.143
ATAACAGA: 0.287
CGTTGTGC: -0.0403
CCACTCGG: -0.255
GGGCGCAC: -0.313

Set 2
Target: Ras GTPase-activating protein-binding protein 1, C-terminal RGG region (G3BP1, Homo sapiens, UniProt Q13283)
Sequence of UniProt Q13283 (whole entry, looked up): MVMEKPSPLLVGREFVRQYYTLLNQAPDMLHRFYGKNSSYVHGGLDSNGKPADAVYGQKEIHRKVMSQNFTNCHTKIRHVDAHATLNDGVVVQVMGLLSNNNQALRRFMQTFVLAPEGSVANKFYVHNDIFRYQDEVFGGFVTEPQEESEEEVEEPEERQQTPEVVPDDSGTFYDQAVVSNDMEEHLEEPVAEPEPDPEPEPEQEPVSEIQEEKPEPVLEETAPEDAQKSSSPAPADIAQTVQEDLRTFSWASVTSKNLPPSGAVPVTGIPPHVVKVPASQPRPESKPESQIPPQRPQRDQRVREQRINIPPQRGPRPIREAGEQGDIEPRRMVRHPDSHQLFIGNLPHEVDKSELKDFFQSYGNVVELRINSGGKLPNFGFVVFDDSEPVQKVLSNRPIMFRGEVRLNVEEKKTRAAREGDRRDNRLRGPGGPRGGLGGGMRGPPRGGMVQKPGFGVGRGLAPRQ
Technique: RNA Bind-n-Seq
Molecule type: RNA
Matrix: in vitro
Concentration: 1 µM
Setting: whole 134-nt RNA, ends assumed
Added: 150 mM KCl
Baseline: input library
Direction: higher = stronger binding
Measurement: log2 enrichment
Shared flanks, not repeated: GGGAGUUCUACAGUCCGACGAUC … UGGAAUUCUCGGGUGUCAAGG
UCCUGUGCUACACAUCGUAUGUACCGAAUCGGGCCCCCGGGCCCCCGGGGCCCCCGGGGAAAGUAUUAUGUUACGCCGUUCGGAUCUGCA: -1.63
GUCCUGUGCUACACAUCGUAUGUACCGAAUCGGGGAAAGGGGUUUUUGGGGAAAGGGGAAAGUAUUAUGUUACGCCGUUCGGAUCUGCAC: 2.36
ACCAUGCAGGUGGGCAUCUUUGGGAAGUGGGGCAAGGGGGGGAUAUGGAGGGGGGUAACACUUUGGGAACAGGUGGUCCCAGGUCGUUUC: 2.19
AGUCCUGUGCUACACAUCGUAUGUACCGAAUCGGGGUUUUUGGGGUUUGGGGUGGGGAAAGUAUUAUGUUACGCCGUUCGGAUCUGCACU: 3.05
ACCAUGCAGGUGGGCAUCUUUGGGAAGUGGGGCAAGGGGGGGAUAGGGAGGGGGGUAACACUUUAAAAACAGGUGGUCCCAGGUCGUUUC: -1
UAACUUUAGAGGAGGAUCUGAUGGAUAUGGCAGUGGACGUGGAUUUGGGGAUGGCUAUAAUGGGUAUGGCGGAGGACCUGGAGGUGGCAA: -1.03
UCCUGUGCUACACAUCGUAUGUACCGAAUCGGGGUGGGGUUUUUGGGGUUUUUUUGGGGAAAGUAUUAUGUUACGCCGUUCGGAUCUGCA: 1.14
CAAGUCCUGUGCUACACAUCGUAUGUACCGAAUCGGGGUUGGGUUGGGGUUGGGGAAAGUAUUAUGUUACGCCGUUCGGAUCUGCACUUC: 2.76
GUCCUGUGCUACACAUCGUAUGUACCGAAUCGGGCCCCCGGCCCCCGGGCCCCCGGGGAAAGUAUUAUGUUACGCCGUUCGGAUCUGCAC: -1.81
UCAAGUCCUGUGCUACACAUCGUAUGUACCGAAUCGGUGGUUUUUUUGGUUUGGAAAGUAUUAUGUUACGCCGUUCGGAUCUGCACUUCC: -1.27
UGAAAAUUCUCGACUGGCUGCUGAGGUUUACAAAGACAUGCCGGAAACCAGCUUUACUCGAACCAUUUCUAAUCCUGAGGUGGUUAUGAA: -1.94
UCCUCAAGUCCUGUGCUACACAUCGUAUGUACCGAAUCGGCGGCGGGCGGGAAAGUAUUAUGUUACGCCGUUCGGAUCUGCACUUCCAGC: -0.72
UCCUCAAGUCCUGUGCUACACAUCGUAUGUACCGAAUCGGUUUGGAGGUGGAAAGUAUUAUGUUACGCCGUUCGGAUCUGCACUUCCAGC: -1.13
AAGUCCUGUGCUACACAUCGUAUGUACCGAAUCGGGUUUGGGAAAAAGGGAAAGGGAAAGUAUUAUGUUACGCCGUUCGGAUCUGCACUU: 1.64

Set 3
Target: Histone acetyltransferase KAT6A, winged helix 1, GST fusion (KAT6A, Homo sapiens, UniProt Q92794, residues 1-85)
Technique: protein binding microarray
Molecule type: double-stranded DNA, one strand shown
Matrix: in vitro
Concentration: not given
Setting: 8-mer, flanks averaged, mean of 2 arrays, mostly near background
Baseline: not given
Direction: higher = stronger binding
Measurement: E-score
Target sequence (chain): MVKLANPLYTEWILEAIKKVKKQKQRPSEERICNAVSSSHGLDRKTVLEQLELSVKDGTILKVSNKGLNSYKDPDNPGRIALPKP
CCCGGCCC: 0.263
ATCGAGGC: -0.0324
AGAGGTTG: -0.123
GGAGTTGA: -0.0905
AGTATTTC: -0.0324
CGCCGGAC: 0.434
AGGTTCAA: -0.207
CATGAGAC: -0.136
GCCTTGTA: -0.0969
CCCTGTTC: -0.325
AGGCTCGC: 0.129
ATGTATAG: -0.138
CGCCCGCG: 0.45
AGTAGCTG: -0.234
CCCAGATC: -0.0458
ACCGCCCT: -0.0213

Set 4
Target: RNA binding protein fox-1 homolog 2, RRM domain, GST-SBP tag (RBFOX2, Homo sapiens, UniProt O43251-10, residues 100-194)
Technique: RNA Bind-n-Seq
Molecule type: RNA
Matrix: in vitro
Concentration: 365 nM
Setting: natural RNA segment, single round, ends assumed
Baseline: no-protein control
Direction: higher = stronger binding
Measurement: RBNS enrichment (R)
Shared flanks, not repeated: GGGAGUUCUACAGUCCGACGAUC … UGGAAUUCUCGGGUGCCAA
Construct (chain): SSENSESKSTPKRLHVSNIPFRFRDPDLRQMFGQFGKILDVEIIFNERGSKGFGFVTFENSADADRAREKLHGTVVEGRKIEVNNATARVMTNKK
UGUGCUCUCCUGUCACAAAUGCUGCACUGUUGAUUCUUUCAAAACAAAACGAAACAAACCUCUCCAGUCUCUAAUUUAUGCCUAUGCAAAAAAUAAAGGAUGCCCAGGAU: 0.64
CUUGUUCUUGCAUGAGAUGGCUUUGGUUGUCCCAGUACUCCAGUCUCUCCCUUCCCUUACCUGGCCCCUUGGUGCUCCUUCAGCAUUUGUGCUGUCUACCUCUCACUGGG: 18.9
AAAAAGGUUGGUGGCUUUUGCUUGGGAUCAGUGCUCUGCUAACGCCCUUGCUGGUCUCUCCACACAUUCCUGUCAUUGAGACUUGAAUUGUAGGUGUGAUGUUAUGCACA: 0.534
CCCUUUACCUCACAGUCUCCAUUGGACCUCAGCCAGGACCAGCCUCUGUCUGGUCCGAGAUGACCCUCUGGUCCAGGCCUCGCUGACACUUUUGUUCUCAGCUUCUGCCA: 0.289
UCUUUUUUGGGGAGGUUGGGGUCAGGGGUUGUUUCUUUGAGAUUUAAGUUUUCAUUUUUGAGGGGUAAUCACCUUCAAGUAAAACAGUAAUAGCAAGAGUGAAGGUACUU: 0.543
GUUACUAUCUUAGGAAUAGCAAAUUAUGUCCAGUCAUAGAGAAGAAAGCUUCAUAAUAAUACAUUCUUACCUAAAGCUCACUGUCAUGAUGUUAGGUAUUUAAAUUCUUA: 0.481
UGAGGCAAGGCCUGGCCGACAACACCGUUAUUGCUAAGUAAAUAAUGUUGUGUGGGACCUGGACCGCCCUCUGGAAGAAGAUUGUACCUUGGAGCUUCUCAAGUUUGAGG: 0.338
UAAGAGGUCUUAGAAACAUAGCCUGUAAAUGUGUCUUGUAACUGGCACACUAAAAAAGAUCCUAGUUGAGCAUCUCUCUUGGUGAGGAAGCGAUGUGUGUGCGGUUCAGG: 0.931
GCAGGGCCGCUCGAUGCCUUUGCUGUUUAGCUUCCUCCAGAGGAGGGGACUUGUAGGAAUCUGCCUUCCAGCCCAGACCCCCAGUGUAUUUUGUCCAAGUUCACAGUAGA: 0.385
UCACAGCCACCUAAGUGCGCGGUGUUUUGUUGUUUGACUGUGUUAGAGAAGUUUGAAUGUUUGUGUCAGUUUUGGGUCAGCCUAGAUAAAGAUGGGAAAGAGGGAGUGUU: 1.93
GGUAUAUUUGAAGAGCUUGGGAUGGAUUUGACUAAAUCUGCCCCGAGGAGGGUGAACAAGGUGAUCUCAGAGAUCACUACUGCUCUUGGAGUUCCUUCUCCUAAAGCUAA: 0.412
GAUCACAUCCCAGCUCUGCAUGGCCCCUGCUAAGGCUCAGGUAUAACCUCACCUUCCCUGGCUCAUCUUGGCCUUGGGGAGUUGCCUUUAGGCUUGAGUCCUCAAGCCUC: 0.236

Set 5
Target: RING finger protein unkempt homolog, zinc fingers 1-6, SBP tag (UNK, Homo sapiens, UniProt Q9C0B0, residues 30-357)
Sequence of UniProt Q9C0B0 (30-357, looked up): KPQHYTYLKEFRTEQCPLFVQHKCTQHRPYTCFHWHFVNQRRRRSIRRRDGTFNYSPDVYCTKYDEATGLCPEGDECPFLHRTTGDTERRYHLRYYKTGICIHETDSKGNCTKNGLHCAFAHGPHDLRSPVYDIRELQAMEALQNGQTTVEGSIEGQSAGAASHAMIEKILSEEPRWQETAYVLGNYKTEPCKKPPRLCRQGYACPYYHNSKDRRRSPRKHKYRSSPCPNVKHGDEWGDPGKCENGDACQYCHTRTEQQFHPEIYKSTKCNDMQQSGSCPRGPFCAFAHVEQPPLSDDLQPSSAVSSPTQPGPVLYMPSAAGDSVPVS
Technique: RNA Bind-n-Seq
Molecule type: RNA
Matrix: in vitro
Concentration: 100 nM
Setting: RNA with constant flanks, vertebrate orthologous sites, ends assumed
Baseline: input RNA pool
Direction: higher = stronger binding
Measurement: bound/input enrichment
Shared flanks, not repeated: GGGAGUUCUACAGUCCGACGAUC … CAACAGAGGAUUGAGCAUCA
GUCCCUCAGUGACAGUAUGCCGUCCGUAGCAGAUUCCCACUCUAGUCACUUUUCUGAGUUUAGUUGUUCUGACCUAGAAAGCAUGAAAACUUCUUGUAGUCAUGGUUCCACUGAUUAUCA: 1.01 ratio
UAUUCGUGUCAUACCAGCAUAUUAACCUCUCGUCUGUGCACAGCUUCAAAUGUUACCGUCUAGUUAGAUUUUUAUUUAAAAUAUGAAAAACUGCUUUUCCCAAGACGUUUUUUAAAAACA: 1.28 ratio
CCAAGCUAAAGGAGUUAACCUCUUUAUUUUUGUAUCAAAGAAAGAUUAUUUUGAAAUGAUUAGGGUUUUUACACAACUCUGAAAUUUGUUGCUUUUGUAAACAGAUCGUUUGGUCUUAGG: 0.27 ratio
UCUAUCUCUUUUCCCCUGUCCUGAUUUUAAAAGCCCCCUCCUUUUUUUUUUUUCUUUUUUUAGGCAUAUGUAGUAAUAUUAGAAACAUUUAAUUUGGGAAACUUUGAUUCUUGAAAGAGA: 0.986 ratio
CUCAUUUCCAGGUUGGCUCUAGUGGAAAAGUCAUAGGAAUUGACCACAUUAAAGAGCUAGUAGAAGACUCAGUAAAUAAUGUCAGAAAGGACGAUCCACUGCUUUUGUCUUCAGGGAGAG: 0.391 ratio
AAGUCCUCAACUUGUUCUAGCUUGCCCUUCAAAGUUGAGCCAGGCAUUAAUGCUAGGUACUAGAGGUUCUCGUUUCUUUAUUGCUAUUGGUCAGAGAGACAGAUGUUAAAAACAGGAAUA: 0.332 ratio
GGGACGCUUUGAUGUAAAAAUUGAAGUUAAGAGCUGAUCACAAGCACAGAUCUUUCCCACCAGCCAUUGAAAAAAAGUAAAAAAGAUAAAAACAAAAACCUACUAGUCUUGAACAAACUG: 0.706 ratio
GUUGGGUCAUGACCCCUAUAGGUUAGGCCAUGAUGCUUACAGGUUAGGACAGGACCCCUACAGAUUAGGCCAUGAUCCCUACAGACUAACUCCUGAUCCCUACAGGAUGUCACCCAGACC: 0.462 ratio
GUGGGGGUUUGGGGGCGGGAAAGGGAAGAUGUAUGGAUGUUCUUGGCAAUUUUUUGAGUGUUUAGAGGUUUUUUUUUCACCCCCCUUUCUUCAUUUUUCUCUUUUUGCAUUUUCCUUUUA: 0.936 ratio
UGUGUUUUGGUACCAUUCAAUGUACCAAUACUCAUCCUUUUUCAUUAUACCAACUAUCGCUAGAAGUAGGAGUUUAAUAUUUUUAAAGAUUUUACAUUGCUGUAUAUUCAAAAUUUUAAA: 0.58 ratio
AUGUUCAGUCCCCUGGGCUGGGACAGAUUUUUUUAAUGUCUUGAAACUUAACUCUGCUUGUAGGAGACUUUAACCUUUUUGUCUUUUUUUUUUUUUUUUUUUUAAAAACAACCUCCACCU: 1.42 ratio

Excerpt of the above (set 5):
CUCAUUUCCAGGUUGGCUCUAGUGGAAAAGUCAUAGGAAUUGACCACAUUAAAGAGCUAGUAGAAGACUCAGUAAAUAAUGUCAGAAAGGACGAUCCACUGCUUUUGUCUUCAGGGAGAG: 0.391 ratio
AAGUCCUCAACUUGUUCUAGCUUGCCCUUCAAAGUUGAGCCAGGCAUUAAUGCUAGGUACUAGAGGUUCUCGUUUCUUUAUUGCUAUUGGUCAGAGAGACAGAUGUUAAAAACAGGAAUA: 0.332 ratio
GGGACGCUUUGAUGUAAAAAUUGAAGUUAAGAGCUGAUCACAAGCACAGAUCUUUCCCACCAGCCAUUGAAAAAAAGUAAAAAAGAUAAAAACAAAAACCUACUAGUCUUGAACAAACUG: 0.706 ratio
GUUGGGUCAUGACCCCUAUAGGUUAGGCCAUGAUGCUUACAGGUUAGGACAGGACCCCUACAGAUUAGGCCAUGAUCCCUACAGACUAACUCCUGAUCCCUACAGGAUGUCACCCAGACC: 0.462 ratio
GUGGGGGUUUGGGGGCGGGAAAGGGAAGAUGUAUGGAUGUUCUUGGCAAUUUUUUGAGUGUUUAGAGGUUUUUUUUUCACCCCCCUUUCUUCAUUUUUCUCUUUUUGCAUUUUCCUUUUA: 0.936 ratio
UGUGUUUUGGUACCAUUCAAUGUACCAAUACUCAUCCUUUUUCAUUAUACCAACUAUCGCUAGAAGUAGGAGUUUAAUAUUUUUAAAGAUUUUACAUUGCUGUAUAUUCAAAAUUUUAAA: 0.58 ratio
AUGUUCAGUCCCCUGGGCUGGGACAGAUUUUUUUAAUGUCUUGAAACUUAACUCUGCUUGUAGGAGACUUUAACCUUUUUGUCUUUUUUUUUUUUUUUUUUUUAAAAACAACCUCCACCU: 1.42 ratio
